Published values of several laboratories.
Parts stem from different laboratories: compare values within a part only. Changes are numbered by the printed parent chain.

Study 1 — method: protein binding microarray; molecule type: double-stranded DNA, one strand shown; medium: in vitro; tested at: not given; relative to: not given; direction: higher = stronger binding
Target: Histone acetyltransferase KAT6A, both winged helices, GST fusion (KAT6A, Homo sapiens, UniProt Q92794, residues 1-181)
Notes: 8-mer, flanks averaged, mean of 2 arrays, mostly near background
Target sequence (chain): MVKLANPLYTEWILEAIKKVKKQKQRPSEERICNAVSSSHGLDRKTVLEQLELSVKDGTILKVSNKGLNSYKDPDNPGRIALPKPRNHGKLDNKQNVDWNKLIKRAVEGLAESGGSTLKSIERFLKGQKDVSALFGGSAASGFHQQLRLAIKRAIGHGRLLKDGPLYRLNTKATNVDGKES
`TATTGACA` has an E-score of 0.0322.
`CCTATGCA` has an E-score of -0.123.
With `CCGTGCTC` the E-score was 0.158.
`CTCGCATA` gave an E-score of 0.129.
`CAAGTCTA` gave an E-score of -0.177.
The E-score of `TGGAACCA` is reported as 0.0373.
`ATTACCTA` gave an E-score of -0.0402.
For `ACATCCAT`, the E-score was -0.208.
`AAGCCCAC` gave an E-score of -0.08.
`ATGCGAGC` gave an E-score of 0.0202.
The E-score of `GGTTTTTA` is reported as -0.0634.
`AGCAGGAG` has an E-score of -0.111.
For `CCCGCTAG`, the E-score was 0.262.
`TAAAATAA` has an E-score of -0.0567.
`ACCGCACC` gave an E-score of 0.166.
With `AATCGATT` the E-score was 0.0982.
`ATCTACGG` gave an E-score of 0.225.
For `GCGAACGC`, the E-score was 0.257.
`AACCAAGG` gave an E-score of -0.0857.
The E-score of `ACCTGATC` is reported as -0.226.
The E-score of `AAACGCGT` is reported as 0.306.
With `CCTGTGAG` the E-score was -0.173.
`AGATTGAT` has an E-score of 0.0193.
With `GTCGGCAC` the E-score was 0.175.
`CTCCCTAA` has an E-score of -0.0809.

Study 2 — method: protein-binding microarray; molecule type: double-stranded DNA, one strand shown; medium: in vitro; tested at: 0.8 µM; notes: whole 60-bp probe, no competitor; direction: higher = stronger binding; all sequences stand within: … GTCTTGATTCGCTTGACGCTGCTG
Target: Centromere-binding protein 1, full length, N-terminal tag (CBF1, Saccharomyces cerevisiae, UniProt P17106, residues 1-351)
Sequence of UniProt P17106 (whole entry, looked up): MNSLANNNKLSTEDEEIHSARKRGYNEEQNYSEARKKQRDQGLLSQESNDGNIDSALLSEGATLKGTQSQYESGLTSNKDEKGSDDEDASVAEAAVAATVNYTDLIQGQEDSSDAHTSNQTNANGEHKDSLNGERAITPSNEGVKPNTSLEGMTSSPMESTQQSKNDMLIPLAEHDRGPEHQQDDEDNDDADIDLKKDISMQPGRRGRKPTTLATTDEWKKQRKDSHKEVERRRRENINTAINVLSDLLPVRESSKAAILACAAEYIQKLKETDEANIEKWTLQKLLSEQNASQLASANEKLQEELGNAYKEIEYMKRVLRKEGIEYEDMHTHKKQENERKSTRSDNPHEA
`GAAATCTGAAATTTTGACGTGACATGAGAGGACTAG` has a fluorescence intensity of 578 a.u.
For `TGTACGAAGCTATTGCAGGTGTATATAGTAGTTAGG`, the fluorescence intensity was 518 a.u.
With `CTATGCCCGAAATCCAACGTGCATTCTATTCTCTTC` the fluorescence intensity was 568 a.u.
With `GAAGAACTTTAGCGTCACCAGTTACTGCGACACTAG` the fluorescence intensity was 506 a.u.
The fluorescence intensity of `GAAAATGTGCTGCGGGCTGATGTCCTCCACACGTAG` is reported as 476 a.u.
`GAATCCAACTATGGTGACGTAAGAATTTACTTGTAG` gave a fluorescence intensity of 544 a.u.
`CTAAAATGTTGAAGCATCACCAGTAGGATGACCTTC` has a fluorescence intensity of 498 a.u.
With `GAACTTGTACGTTTTAACAACGTGAAGCACAACTAG` the fluorescence intensity was 635 a.u.
For `CTATATACCACTTCACGTGCCACCGAGTAGGTTTTC`, the fluorescence intensity was 3900 a.u.
For `CTACATTGCCACTATCACGTTGTCAAACTTTGCTTC`, the fluorescence intensity was 1190 a.u.
The fluorescence intensity of `CTAATCGCGCATAGCCACGATAAGGCGTGGTGCTTC` is reported as 477 a.u.
`CCTAACTACTATATCCACATGGTATAGCTTCGTACA` has a fluorescence intensity of 635 a.u.
With `GAAAAAAATGCTCACCTGACCTTATTCACCCAATAG` the fluorescence intensity was 5200 a.u.
`CTAATATATATATAGAACACCACCCTTGGAAAATTC` has a fluorescence intensity of 632 a.u.
`TGTACGAAGCTATTCAGGGTGACTATAGTAGTTAGG` gave a fluorescence intensity of 529 a.u.
For `CTACATCAATTCCATCACCCTGTCATTCAACTCTTC`, the fluorescence intensity was 547 a.u.
`GAACACGCTATTTGTCATGCGAGGGAAATCCAGTAG` has a fluorescence intensity of 676 a.u.
The fluorescence intensity of `GAATTTGCATTGTCGCACGTGACCAGCGACAAATAG` is reported as 19600 a.u.
The fluorescence intensity of `GAATGTTGATTTTATTTTGTGATCTTTAGAATGTAG` is reported as 543 a.u.

Study 3 — method: universal PBM; molecule type: double-stranded DNA, one strand shown; medium: in vitro; tested at: not given; direction: higher = stronger binding
Target: Sal-like protein 4, full length isoform B (SALL4, Homo sapiens, UniProt Q9UJQ4-2, residues 1-616)
Notes: 8-mer, flanks averaged, mean of replicates
Residues (chain): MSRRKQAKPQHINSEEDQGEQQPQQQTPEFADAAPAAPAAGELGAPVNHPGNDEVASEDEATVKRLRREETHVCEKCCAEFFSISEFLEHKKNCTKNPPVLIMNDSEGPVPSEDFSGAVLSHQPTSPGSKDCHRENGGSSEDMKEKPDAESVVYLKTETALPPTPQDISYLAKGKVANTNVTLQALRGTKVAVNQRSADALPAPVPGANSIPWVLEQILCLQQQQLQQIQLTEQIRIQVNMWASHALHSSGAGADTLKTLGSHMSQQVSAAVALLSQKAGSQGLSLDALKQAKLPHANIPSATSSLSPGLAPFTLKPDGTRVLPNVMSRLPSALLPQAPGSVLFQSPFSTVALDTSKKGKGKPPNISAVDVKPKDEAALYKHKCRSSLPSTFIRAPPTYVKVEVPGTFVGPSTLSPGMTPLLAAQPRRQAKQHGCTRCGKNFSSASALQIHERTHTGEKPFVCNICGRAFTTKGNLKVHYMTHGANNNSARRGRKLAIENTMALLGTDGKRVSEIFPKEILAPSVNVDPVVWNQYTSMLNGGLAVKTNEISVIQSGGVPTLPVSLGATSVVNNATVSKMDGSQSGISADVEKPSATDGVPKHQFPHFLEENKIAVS
With `ACTTTTCG` the E-score was 0.109.
`CCTGTTGA` gave an E-score of -0.0334.
`GCACCGAC` has an E-score of -0.241.
`CTGTGATC` has an E-score of -0.0567.
For `AGTTGATC`, the E-score was 0.021.
The E-score of `CCCAAAGC` is reported as -0.101.
The E-score of `TCACCAAA` is reported as 0.247.
The E-score of `GGCTAGAA` is reported as -0.0767.
With `GATCGTCC` the E-score was -0.185.
The E-score of `AGGAGGAT` is reported as -0.00388.
`ACTGAAAT` has an E-score of 0.203.
The E-score of `AGCTATAG` is reported as 0.134.
For `AGAGTCAC`, the E-score was -0.106.
With `AAGAATGA` the E-score was 0.236.
`GGGGTAAA` gave an E-score of 0.0535.
With `GCTGGCAA` the E-score was -0.161.
`CATCACTA` has an E-score of 0.225.
For `ACGGTAAG`, the E-score was -0.122.
The E-score of `CAAAGCAG` is reported as -0.0716.
The E-score of `GTCCCCCA` is reported as -0.309.
For `CAGTCCGC`, the E-score was -0.176.
With `AAACGCTA` the E-score was 0.0423.

Study 4 — target: CCNE1, cyclin fold, Cln2 fusion (human); method: yeast growth competition, sequencing; medium: yeast; notes: weak parent motif; relative to: not given; direction: higher = stronger binding
Starting sequence: MASTL docking peptide (human); PMIAKNLMCELDE
`E10T` — result for “normalised enrichment score”: -0.155.
For `A4F`, “normalised enrichment score” read 0.292.
`L11A`: “normalised enrichment score” 0.0322.
`I3W` — result for “normalised enrichment score”: 0.00608.
`E10V` — result for “normalised enrichment score”: -0.107.
For `I3P`, “normalised enrichment score” read 0.124.
`I3V`: “normalised enrichment score” -0.2.
For `K5M`, “normalised enrichment score” read 0.0224.
`N6L` — result for “normalised enrichment score”: -0.135.
Under “normalised enrichment score”, `K5W` is recorded as 0.306.
`I3D` — result for “normalised enrichment score”: -0.178.
Under “normalised enrichment score”, `C9V` is recorded as 0.0339.
Under “normalised enrichment score”, `L7D` is recorded as -0.319.
Under “normalised enrichment score”, `M8H` is recorded as -0.0619.
Under “normalised enrichment score”, `E10F` is recorded as -0.135.
Under “normalised enrichment score”, `C9W` is recorded as -0.0993.
Under “normalised enrichment score”, `L11R` is recorded as -0.328.
